Assay results of several laboratories.
Every numbered part comes from another study and shows a few of its results, in no order. Changes are numbered by the printed parent chain.
Sequence of UniProt Q15418 (whole entry, looked up): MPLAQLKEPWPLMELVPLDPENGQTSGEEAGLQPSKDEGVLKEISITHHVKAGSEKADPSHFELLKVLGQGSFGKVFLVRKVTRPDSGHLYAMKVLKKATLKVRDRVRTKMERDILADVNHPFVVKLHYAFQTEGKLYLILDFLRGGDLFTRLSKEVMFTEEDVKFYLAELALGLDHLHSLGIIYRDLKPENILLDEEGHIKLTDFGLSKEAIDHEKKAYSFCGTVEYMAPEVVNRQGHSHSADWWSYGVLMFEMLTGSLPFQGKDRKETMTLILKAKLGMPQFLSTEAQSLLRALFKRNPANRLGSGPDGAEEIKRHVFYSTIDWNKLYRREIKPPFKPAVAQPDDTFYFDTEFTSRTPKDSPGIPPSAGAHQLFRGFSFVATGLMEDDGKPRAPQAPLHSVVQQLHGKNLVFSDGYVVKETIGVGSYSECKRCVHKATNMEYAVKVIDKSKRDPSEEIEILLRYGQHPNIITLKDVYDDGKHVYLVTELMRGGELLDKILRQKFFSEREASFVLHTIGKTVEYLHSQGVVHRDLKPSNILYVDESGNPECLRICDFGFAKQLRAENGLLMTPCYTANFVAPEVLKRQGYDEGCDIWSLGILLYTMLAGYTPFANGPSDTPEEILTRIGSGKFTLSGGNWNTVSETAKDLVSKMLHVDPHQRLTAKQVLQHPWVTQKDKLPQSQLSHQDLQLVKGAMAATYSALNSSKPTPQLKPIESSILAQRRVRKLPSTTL
Sequence of UniProt O96013 (whole entry, looked up): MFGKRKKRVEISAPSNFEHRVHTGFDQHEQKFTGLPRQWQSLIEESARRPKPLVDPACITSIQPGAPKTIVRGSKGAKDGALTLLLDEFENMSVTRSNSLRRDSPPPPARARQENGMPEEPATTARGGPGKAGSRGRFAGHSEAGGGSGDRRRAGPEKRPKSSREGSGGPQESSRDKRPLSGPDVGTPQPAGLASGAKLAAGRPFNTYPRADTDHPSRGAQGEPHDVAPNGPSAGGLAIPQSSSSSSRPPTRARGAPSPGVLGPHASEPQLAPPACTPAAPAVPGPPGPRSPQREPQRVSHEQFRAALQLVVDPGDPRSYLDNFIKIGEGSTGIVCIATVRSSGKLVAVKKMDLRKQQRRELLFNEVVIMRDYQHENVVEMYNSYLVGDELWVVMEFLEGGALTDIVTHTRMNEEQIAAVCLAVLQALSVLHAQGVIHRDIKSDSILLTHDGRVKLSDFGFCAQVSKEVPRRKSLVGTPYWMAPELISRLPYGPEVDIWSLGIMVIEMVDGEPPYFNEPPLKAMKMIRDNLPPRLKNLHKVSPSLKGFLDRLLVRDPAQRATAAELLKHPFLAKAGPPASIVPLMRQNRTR
Sequence of UniProt Q9BVS4 (whole entry, looked up): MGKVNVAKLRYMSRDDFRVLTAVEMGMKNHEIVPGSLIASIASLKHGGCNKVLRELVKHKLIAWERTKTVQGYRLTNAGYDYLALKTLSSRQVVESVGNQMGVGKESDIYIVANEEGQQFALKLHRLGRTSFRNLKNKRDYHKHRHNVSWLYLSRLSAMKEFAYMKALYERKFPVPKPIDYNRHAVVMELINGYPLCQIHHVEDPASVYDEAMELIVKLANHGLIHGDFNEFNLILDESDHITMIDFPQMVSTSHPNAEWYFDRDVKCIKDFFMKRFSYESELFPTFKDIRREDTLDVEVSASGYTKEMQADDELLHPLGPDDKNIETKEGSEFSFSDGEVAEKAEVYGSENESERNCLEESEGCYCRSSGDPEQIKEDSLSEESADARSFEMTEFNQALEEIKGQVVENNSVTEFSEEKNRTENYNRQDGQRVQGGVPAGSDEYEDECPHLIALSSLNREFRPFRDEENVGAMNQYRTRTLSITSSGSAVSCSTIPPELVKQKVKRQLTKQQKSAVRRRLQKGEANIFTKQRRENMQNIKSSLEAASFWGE
Sequence of UniProt P06239 (whole entry, looked up): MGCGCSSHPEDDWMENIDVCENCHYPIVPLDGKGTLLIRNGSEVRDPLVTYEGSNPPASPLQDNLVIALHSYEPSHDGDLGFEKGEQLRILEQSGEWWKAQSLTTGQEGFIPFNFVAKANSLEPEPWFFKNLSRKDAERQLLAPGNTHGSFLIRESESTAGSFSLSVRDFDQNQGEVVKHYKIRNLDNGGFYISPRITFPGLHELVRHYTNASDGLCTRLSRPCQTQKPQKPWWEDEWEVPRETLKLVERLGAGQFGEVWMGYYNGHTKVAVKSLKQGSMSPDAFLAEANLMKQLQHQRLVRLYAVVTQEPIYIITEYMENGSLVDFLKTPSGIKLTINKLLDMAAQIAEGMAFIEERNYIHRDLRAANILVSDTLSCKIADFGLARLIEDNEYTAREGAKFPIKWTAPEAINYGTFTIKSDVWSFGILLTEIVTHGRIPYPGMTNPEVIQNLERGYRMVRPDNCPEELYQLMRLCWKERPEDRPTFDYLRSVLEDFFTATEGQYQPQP
Sequence of UniProt P07949 (whole entry, unmodified, looked up): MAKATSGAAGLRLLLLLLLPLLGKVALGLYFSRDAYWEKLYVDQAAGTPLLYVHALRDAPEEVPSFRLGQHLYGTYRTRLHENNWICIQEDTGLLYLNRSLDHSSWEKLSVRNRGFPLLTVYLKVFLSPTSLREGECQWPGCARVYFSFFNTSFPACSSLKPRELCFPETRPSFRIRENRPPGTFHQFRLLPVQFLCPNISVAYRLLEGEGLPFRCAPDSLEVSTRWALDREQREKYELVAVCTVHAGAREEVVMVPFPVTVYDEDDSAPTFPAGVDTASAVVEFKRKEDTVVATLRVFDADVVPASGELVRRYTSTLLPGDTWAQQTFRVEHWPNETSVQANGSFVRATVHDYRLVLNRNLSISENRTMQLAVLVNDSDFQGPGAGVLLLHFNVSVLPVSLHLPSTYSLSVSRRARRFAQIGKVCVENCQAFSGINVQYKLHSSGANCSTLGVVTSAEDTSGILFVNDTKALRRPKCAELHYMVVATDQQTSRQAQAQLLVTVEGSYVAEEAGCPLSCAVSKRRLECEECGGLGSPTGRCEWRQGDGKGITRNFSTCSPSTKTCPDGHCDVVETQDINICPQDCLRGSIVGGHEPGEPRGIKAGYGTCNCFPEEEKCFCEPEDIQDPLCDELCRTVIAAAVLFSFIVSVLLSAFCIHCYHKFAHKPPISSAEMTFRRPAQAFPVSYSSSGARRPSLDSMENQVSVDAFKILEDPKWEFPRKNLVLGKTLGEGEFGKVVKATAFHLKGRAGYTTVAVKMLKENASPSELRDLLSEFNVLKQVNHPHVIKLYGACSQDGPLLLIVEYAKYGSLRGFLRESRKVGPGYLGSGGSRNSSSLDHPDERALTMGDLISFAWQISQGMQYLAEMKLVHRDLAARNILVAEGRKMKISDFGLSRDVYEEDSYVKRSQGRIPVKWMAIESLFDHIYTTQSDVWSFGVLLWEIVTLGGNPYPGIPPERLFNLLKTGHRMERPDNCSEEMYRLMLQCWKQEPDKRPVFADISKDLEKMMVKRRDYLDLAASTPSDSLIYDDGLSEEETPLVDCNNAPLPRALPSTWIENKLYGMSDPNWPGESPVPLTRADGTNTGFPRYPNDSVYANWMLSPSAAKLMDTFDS
Sequence of UniProt P22607 (whole entry, unmodified, looked up): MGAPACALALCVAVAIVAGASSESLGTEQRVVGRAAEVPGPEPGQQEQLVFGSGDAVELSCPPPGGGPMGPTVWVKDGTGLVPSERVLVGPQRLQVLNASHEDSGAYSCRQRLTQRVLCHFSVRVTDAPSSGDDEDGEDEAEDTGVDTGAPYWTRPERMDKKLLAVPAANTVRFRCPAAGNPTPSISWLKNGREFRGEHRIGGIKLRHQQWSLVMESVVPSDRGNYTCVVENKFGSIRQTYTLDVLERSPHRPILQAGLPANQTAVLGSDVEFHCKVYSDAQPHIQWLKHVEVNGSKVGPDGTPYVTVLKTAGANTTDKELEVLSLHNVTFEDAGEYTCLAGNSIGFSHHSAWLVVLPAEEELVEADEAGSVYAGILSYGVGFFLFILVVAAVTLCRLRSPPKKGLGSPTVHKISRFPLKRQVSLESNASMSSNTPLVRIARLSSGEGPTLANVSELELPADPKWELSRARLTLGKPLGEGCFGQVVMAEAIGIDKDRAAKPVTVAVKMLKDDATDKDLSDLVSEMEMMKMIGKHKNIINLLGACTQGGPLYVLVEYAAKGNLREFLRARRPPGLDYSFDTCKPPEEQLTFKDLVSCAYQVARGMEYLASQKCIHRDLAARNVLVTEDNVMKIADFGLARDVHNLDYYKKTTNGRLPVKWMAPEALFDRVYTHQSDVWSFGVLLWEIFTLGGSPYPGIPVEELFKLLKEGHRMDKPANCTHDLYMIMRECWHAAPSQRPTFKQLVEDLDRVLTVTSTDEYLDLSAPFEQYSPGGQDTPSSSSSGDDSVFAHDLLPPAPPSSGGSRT

Series 1 — organism: Plasmodium berghei; mode: inhibitor; cell line: Huh-7; strain: GFP-expressing sporozoites, liver stage; tested at: 10 µM; time: 24 h; relative to: untreated control
For O=C(OCc1ccccc1)c1ccccc1, the infection rate was 70.6%.
The infection rate of Nc1ccc(C(=O)O)c(O)c1 is reported as 98.8%.
For CNCC[C@@H](Oc1ccccc1C)c1ccccc1, the infection rate was 102%.
The infection rate of C[N+](C)(C)CCO is reported as 102%.

Series 2 — effect on: cell-free assay; technique: competition with immobilised ligand; tested at: 1 µM
Structure (SMILES): CNC(=O)Nc1ccc2c(c1)CC[C@@]21OC(=O)N(CC(=O)N(Cc2ccc(F)cc2)[C@@H](C)C(F)(F)F)C1=O
For LCK (Homo sapiens, UniProt P06239): remaining binding read 84%.
For RET (Homo sapiens, UniProt P07949, V804L): remaining binding read 91%.
It gave 77% for remaining binding (MST1R (Homo sapiens, UniProt Q04912)).
ROS1 (Homo sapiens, UniProt P08922) — remaining binding: 80%.
For COQ8B (Homo sapiens, UniProt Q96D53): remaining binding read 100%.
The remaining binding was 83% (MAP2K5 (Homo sapiens, UniProt Q13163)).
For STK33 (Homo sapiens, UniProt Q9BYT3): remaining binding read 100%.
The remaining binding was 87% (BTK (Homo sapiens, UniProt Q06187)).
The remaining binding was 83% (Tyrosine-protein kinase JAK2, JH1 (JAK2, Homo sapiens, UniProt O60674)).
For CASK (Homo sapiens, UniProt O14936): remaining binding read 86%.
For PAK4 (Homo sapiens, UniProt O96013): remaining binding read 89%.
TGFBR2 (Homo sapiens, UniProt P37173) — remaining binding: 90%.
It gave 79% for remaining binding (FGFR3 (Homo sapiens, UniProt P22607, G697C)).
For STK26 (Homo sapiens, UniProt Q9P289): remaining binding read 90%.
The remaining binding was 67% (RIOK2 (Homo sapiens, UniProt Q9BVS4)).
GRK3 (Homo sapiens, UniProt P35626) — remaining binding: 100%.
For Ribosomal protein S6 kinase alpha-1, C-terminal kinase domain (RPS6KA1, Homo sapiens, UniProt Q15418): remaining binding read 88%.
The remaining binding was 86% (Ribosomal protein S6 kinase alpha-1, N-terminal kinase domain (RPS6KA1, Homo sapiens, UniProt Q15418)).
For MARK2 (Homo sapiens, UniProt Q7KZI7): remaining binding read 100%.

Series 3 — effect on: probe labelling
Structure (SMILES): COc1cc(C(=O)N2CCC(N3CCN(C)CC3)CC2)ccc1Nc1ncc2c(n1)N(C)c1ccccc1C(=O)N2C
The inhibition was 0.1% (NIM1 (mouse); KiNativ ADP probe; mouse brain lysate; 0.1 µM, LYS1 labelled site).
The inhibition was 14.8% (KiNativ profiling, refers to: TSTQEYAAkIINTK peptide; human PBMC lysate; concentration not given, Lys1 site, with: ATP acyl phosphate probe).
The inhibition was 18.3% (RSK3 domain 2 (mouse); inhibitor, KiNativ ActivX ADP probe; mouse brain lysate; 1 µM, Lys1 site peptide).

Series 4 — organism: Sarcocystis neurona; effect on: parasite growth; tested at: 10 µM; time: 96 h; setting: first screen
With CC(=O)OCC(CCn1cnc2cnc(N)nc21)COC(C)=O the inhibition was 6%.
The inhibition of O=C(O)c1cc(/N=N/c2ccc(S(=O)(=O)Nc3ccccn3)cc2)ccc1O is reported as -3.5%.
O=[N+]([O-])c1cccc2cn[nH]c12 gave an inhibition of 1.9%.

Series 5 — technique: RNA Bind-n-Seq; molecule type: RNA; sample: in vitro; tested at: 200 nM; setting: whole 134-nt RNA, ends assumed; with: 150 mM LiCl; relative to: input library; direction: higher = stronger binding; each molecule: 7-deaza-guanosine replaces G
Target: Ras GTPase-activating protein-binding protein 1, full length (G3BP1, Homo sapiens, UniProt Q13283)
Sequence of UniProt Q13283 (whole entry, looked up): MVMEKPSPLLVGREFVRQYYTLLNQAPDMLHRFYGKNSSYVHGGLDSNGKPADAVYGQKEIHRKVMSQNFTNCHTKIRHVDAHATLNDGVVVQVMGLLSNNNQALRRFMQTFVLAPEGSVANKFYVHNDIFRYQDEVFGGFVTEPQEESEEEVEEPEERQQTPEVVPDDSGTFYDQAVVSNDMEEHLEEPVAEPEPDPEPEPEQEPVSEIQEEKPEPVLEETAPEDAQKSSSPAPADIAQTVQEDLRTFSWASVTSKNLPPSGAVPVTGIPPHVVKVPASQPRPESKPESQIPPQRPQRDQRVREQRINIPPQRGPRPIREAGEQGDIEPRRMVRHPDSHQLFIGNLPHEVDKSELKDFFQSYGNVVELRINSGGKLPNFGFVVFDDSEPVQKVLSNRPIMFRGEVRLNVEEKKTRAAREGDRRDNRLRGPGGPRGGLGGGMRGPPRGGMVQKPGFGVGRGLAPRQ
Shared flanks, not repeated: GGGAGUUCUACAGUCCGACGAUC … UGGAAUUCUCGGGUGUCAAGG
For `UCAAGUCCUGUGCUACACAUCGUAUGUACCGAAUCGGGUUUGGGUUUGGGUUUGGAAAGUAUUAUGUUACGCCGUUCGGAUCUGCACUUC`, the log2 enrichment was -0.201.
`UGGGAGGUGGAUUUUGUUUAUUUUUUUAGCUCAUUUCCAGGGGUGGGAAUUUUUUUUUAAUAUGUGUCAUGAAUAAAGUUAUUUUUGAAA` gave a log2 enrichment of -0.474.
With `AGUCCUGUGCUACACAUCGUAUGUACCGAAUCGGUUUUGGGGUUUUGGGGUUUUGGGGAAAGUAUUAUGUUACGCCGUUCGGAUCUGCAC` the log2 enrichment was 0.536.
The log2 enrichment of `UGGGAGGUGGAUUUUGUUUAUUUUUUUAGCUCAUUUCCAGGGGUGGGAAUUUUUUUUUAAUAUGUGUCAUCAAUAAAGUUGUUUUUGAAA` is reported as 0.101.
The log2 enrichment of `ACCAUGCAGGUGGGCAUCUUUGGGAAGUGGGGCAAGGGGGGGAUAGGGAGGGGGGUAACACUGUGGGAACAGGUGGUCCCAGGUCGUUUC` is reported as 0.155.
With `GCAGGAAGUAAAAACAAAUGGAAAUGCUUCGGAUAGUGGCAGGGGUGGGGGUUGCUAAGGAAAUGGUGGGAUGGGAGUGGGUAAAGAGUU` the log2 enrichment was 0.126.
`GCAGGAAGUAAAAACAAAUGGAAAUGCUUCGGAUAGUGGCAGGGGUGAGGGUUGCUAAGGAAAGGGUGGGAUGGGAGUGGGUAAAGAGUU` gave a log2 enrichment of 0.121.
`AGUCCUGUGCUACACAUCGUAUGUACCGAAUCGGGUUUGGGAAAAAAAGGGAAAGGGAAAGUAUUAUGUUACGCCGUUCGGAUCUGCACU` has a log2 enrichment of -0.986.

Series 6 — Change: L8D; technique: DHFR PCA, deep sequencing; sample: yeast; relative to: wild-type fitted maximum; direction: higher = stronger binding
Target: ABI1, truncated, D143A, DHFR fusion (Arabidopsis thaliana)
Setting: methotrexate growth selection, single substitutions
Starting sequence: PYL1, truncated, DHFR fusion (Arabidopsis thaliana); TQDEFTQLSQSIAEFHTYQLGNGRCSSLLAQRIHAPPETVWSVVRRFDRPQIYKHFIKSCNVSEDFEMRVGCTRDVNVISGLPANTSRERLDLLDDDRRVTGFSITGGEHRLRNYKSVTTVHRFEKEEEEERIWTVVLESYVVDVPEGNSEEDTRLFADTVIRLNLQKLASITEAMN
The “relative binding score” was -6.49% (with: (+)-ABA 0.39 µM).
It gave 53.2% for “relative binding score” (with: (+)-ABA 200 µM).
with: (+)-ABA 710 µM — “relative binding score”: 70.7%.
with: (+)-ABA 4.8 µM — “relative binding score”: -9.02%.
For with: (+)-ABA 1.4 µM: “relative binding score” read -22.9%.
For with: (+)-ABA 0.11 µM: “relative binding score” read -2.21%.

Further values, each from its own experiment
CC(C)n1cnc(-c2ccc(F)cc2)c1-c1ncc(C(=O)Nc2ccc(N3CCN(C)CC3)cc2)[nH]1: “patients with Arthritis TEAE” 0% (phase 2a clinical trial; patients with idiopathic pulmonary fibrosis; 60 mg once daily).

Some of these lines once more (series 3):
The inhibition was 0.1% (NIM1 (mouse); KiNativ ADP probe; mouse brain lysate; 0.1 µM, LYS1 labelled site).
The inhibition was 14.8% (KiNativ profiling, refers to: TSTQEYAAkIINTK peptide; human PBMC lysate; concentration not given, Lys1 site, with: ATP acyl phosphate probe).
The inhibition was 18.3% (RSK3 domain 2 (mouse); inhibitor, KiNativ ActivX ADP probe; mouse brain lysate; 1 µM, Lys1 site peptide).
